Results from different studies.
Each numbered part is a random draw from the data of one study; scales do not carry over between parts. “And” joins repeats or separate records; there may be more than shown.
UniProt O94921, sequence (whole entry, looked up): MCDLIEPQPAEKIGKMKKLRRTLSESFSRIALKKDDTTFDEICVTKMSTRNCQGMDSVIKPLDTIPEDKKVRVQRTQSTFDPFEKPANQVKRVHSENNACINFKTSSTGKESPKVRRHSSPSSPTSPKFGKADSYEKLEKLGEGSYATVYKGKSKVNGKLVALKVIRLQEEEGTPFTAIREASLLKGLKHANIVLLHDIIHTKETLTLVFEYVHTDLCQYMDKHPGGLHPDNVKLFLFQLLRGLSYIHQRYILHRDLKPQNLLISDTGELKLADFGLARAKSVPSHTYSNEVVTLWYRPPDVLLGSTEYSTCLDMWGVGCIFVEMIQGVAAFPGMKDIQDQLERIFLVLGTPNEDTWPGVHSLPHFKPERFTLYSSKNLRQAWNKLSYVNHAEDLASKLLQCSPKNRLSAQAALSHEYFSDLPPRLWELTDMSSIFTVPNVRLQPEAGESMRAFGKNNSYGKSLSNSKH
UniProt P00519, sequence (whole entry, looked up): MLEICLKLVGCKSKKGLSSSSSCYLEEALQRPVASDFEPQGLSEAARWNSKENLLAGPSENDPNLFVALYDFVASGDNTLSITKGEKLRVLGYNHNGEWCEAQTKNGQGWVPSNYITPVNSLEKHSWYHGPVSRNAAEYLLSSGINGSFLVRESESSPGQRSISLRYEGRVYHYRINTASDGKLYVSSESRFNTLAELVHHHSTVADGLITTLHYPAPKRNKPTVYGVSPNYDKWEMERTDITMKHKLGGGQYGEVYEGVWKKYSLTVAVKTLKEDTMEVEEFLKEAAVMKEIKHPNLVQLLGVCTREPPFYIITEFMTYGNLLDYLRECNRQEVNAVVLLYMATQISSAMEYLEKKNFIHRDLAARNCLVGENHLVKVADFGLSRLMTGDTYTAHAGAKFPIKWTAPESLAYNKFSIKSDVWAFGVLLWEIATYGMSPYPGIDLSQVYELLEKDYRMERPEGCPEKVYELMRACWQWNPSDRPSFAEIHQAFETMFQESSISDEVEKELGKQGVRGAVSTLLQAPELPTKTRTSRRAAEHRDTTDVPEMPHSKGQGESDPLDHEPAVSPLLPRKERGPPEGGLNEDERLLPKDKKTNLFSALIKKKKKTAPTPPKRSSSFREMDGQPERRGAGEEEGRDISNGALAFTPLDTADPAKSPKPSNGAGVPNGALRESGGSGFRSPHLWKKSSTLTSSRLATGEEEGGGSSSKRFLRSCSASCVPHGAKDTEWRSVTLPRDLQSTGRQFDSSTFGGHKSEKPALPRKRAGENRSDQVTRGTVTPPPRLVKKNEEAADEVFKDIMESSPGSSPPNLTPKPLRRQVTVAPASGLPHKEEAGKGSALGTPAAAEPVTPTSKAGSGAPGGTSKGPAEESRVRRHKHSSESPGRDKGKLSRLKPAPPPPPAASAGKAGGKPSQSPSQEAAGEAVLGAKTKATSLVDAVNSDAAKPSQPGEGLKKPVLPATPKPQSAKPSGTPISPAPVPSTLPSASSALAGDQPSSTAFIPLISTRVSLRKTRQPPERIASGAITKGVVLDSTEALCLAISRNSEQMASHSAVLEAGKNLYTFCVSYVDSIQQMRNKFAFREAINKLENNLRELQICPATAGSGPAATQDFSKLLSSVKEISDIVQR
UniProt P17948, sequence (whole entry, looked up): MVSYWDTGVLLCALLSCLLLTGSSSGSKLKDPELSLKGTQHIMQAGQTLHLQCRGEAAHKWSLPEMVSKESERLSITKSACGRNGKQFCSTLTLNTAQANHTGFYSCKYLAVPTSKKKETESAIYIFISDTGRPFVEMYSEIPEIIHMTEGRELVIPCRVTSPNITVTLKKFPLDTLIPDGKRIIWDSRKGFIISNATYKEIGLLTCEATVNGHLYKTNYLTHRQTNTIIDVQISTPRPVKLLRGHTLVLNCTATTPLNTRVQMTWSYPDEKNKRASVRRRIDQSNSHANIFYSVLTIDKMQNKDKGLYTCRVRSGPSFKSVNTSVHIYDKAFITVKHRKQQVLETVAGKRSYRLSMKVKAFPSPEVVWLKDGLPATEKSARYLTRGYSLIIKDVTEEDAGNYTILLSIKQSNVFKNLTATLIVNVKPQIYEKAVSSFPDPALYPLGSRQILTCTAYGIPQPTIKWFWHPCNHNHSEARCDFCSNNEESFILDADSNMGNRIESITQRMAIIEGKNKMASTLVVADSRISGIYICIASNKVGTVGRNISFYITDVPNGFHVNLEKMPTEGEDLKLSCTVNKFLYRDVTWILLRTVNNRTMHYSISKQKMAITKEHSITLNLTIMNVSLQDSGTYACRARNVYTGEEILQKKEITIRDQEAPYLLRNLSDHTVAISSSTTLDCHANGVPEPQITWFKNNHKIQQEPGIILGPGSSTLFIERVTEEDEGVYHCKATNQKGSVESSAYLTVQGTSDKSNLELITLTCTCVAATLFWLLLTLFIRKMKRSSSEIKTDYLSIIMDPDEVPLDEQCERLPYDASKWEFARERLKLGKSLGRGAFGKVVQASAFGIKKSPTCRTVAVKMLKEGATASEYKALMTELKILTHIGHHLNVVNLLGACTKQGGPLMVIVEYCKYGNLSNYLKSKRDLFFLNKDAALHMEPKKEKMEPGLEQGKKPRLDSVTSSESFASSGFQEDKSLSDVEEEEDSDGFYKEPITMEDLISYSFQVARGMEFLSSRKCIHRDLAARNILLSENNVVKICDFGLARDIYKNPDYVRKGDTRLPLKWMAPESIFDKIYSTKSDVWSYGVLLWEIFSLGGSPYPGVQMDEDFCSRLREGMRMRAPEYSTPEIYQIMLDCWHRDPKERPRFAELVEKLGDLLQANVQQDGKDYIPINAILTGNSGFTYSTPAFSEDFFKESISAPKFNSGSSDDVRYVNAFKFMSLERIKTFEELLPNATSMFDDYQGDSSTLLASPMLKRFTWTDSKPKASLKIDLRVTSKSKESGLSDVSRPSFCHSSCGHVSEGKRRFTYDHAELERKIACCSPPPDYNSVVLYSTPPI
UniProt P11802, sequence (whole entry, looked up): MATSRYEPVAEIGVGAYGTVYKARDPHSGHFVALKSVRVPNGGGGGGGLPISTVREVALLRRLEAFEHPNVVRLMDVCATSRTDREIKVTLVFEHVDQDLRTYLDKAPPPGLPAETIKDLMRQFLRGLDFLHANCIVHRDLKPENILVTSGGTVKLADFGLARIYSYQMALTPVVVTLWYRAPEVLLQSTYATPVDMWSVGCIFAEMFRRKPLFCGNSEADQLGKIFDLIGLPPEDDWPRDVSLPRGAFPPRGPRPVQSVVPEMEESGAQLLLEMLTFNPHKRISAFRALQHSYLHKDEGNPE
UniProt Q9HBY8, sequence (whole entry, looked up): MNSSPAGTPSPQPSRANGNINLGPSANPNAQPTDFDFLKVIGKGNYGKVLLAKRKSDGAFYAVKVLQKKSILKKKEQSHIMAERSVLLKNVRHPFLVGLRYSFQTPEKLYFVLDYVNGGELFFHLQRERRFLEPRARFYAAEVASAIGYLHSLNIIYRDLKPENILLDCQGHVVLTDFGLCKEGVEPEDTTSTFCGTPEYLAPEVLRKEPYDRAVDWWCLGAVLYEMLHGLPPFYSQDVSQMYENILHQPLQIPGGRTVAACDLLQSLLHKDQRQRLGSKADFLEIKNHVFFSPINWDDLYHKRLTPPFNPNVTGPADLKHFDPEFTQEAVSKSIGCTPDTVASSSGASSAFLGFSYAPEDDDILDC

Block 1
Structure (SMILES): N#Cc1ccc(Nc2ccc3[nH]c(=O)[nH]c3c2)c(Cl)c1
Tested at: 1 µM
The remaining binding was 87% (Ribosomal protein S6 kinase alpha-3, C-terminal kinase domain (RPS6KA3, Homo sapiens, UniProt P51812); cell-free assay, competition with immobilised ligand).
Cyclin-dependent kinase 11A (CDK11A, Homo sapiens, UniProt Q9UQ88); binding, competition with immobilised ligand — remaining binding: 97%.
It gave 100% for remaining binding (Vascular endothelial growth factor receptor 1 (FLT1, Homo sapiens, UniProt P17948); cell-free assay, competition with immobilised ligand).
For Dual specificity mitogen-activated protein kinase kinase 6 (MAP2K6, Homo sapiens, UniProt P52564); cell-free assay, competition with immobilised ligand: remaining binding read 80%.
It gave 100% for remaining binding (Tyrosine-protein kinase ABL1, phosphorylated (ABL1, Homo sapiens, UniProt P00519); cell-free assay, competition with immobilised ligand).
For Calcium/calmodulin-dependent protein kinase type II subunit delta (CAMK2D, Homo sapiens, UniProt Q13557); cell-free assay, competition with immobilised ligand: remaining binding read 100%.
The remaining binding was 100% (Discoidin domain-containing receptor 2 (DDR2, Homo sapiens, UniProt Q16832); cell-free assay, competition with immobilised ligand).
It gave 92% for remaining binding (MAP kinase-activated protein kinase 5 (MAPKAPK5, Homo sapiens, UniProt Q8IW41); cell-free assay, competition with immobilised ligand).
For Serine/threonine-protein kinase N2 (PKN2, Homo sapiens, UniProt Q16513); cell-free assay, competition with immobilised ligand: remaining binding read 76%.
It gave 91% for remaining binding (Cyclin-dependent kinase 4, with cyclin D3 (CDK4, Homo sapiens, UniProt P11802); cell-free assay, competition with immobilised ligand).
The remaining binding was 79% (Epidermal growth factor receptor (EGFR, Homo sapiens, UniProt P00533, L858R/T790M); cell-free assay, competition with immobilised ligand).
It gave 87% for remaining binding (Aurora kinase A (AURKA, Homo sapiens, UniProt O14965); cell-free assay, competition with immobilised ligand).
The remaining binding was 93% (Cyclin-dependent kinase 2 (CDK2, Homo sapiens, UniProt P24941); cell-free assay, competition with immobilised ligand).
It gave 100% for remaining binding (Cyclin-G-associated kinase (GAK, Homo sapiens, UniProt O14976); cell-free assay, competition with immobilised ligand).
For Cyclin-dependent kinase 14 (CDK14, Homo sapiens, UniProt O94921); cell-free assay, competition with immobilised ligand: remaining binding read 100%.
It gave 100% for remaining binding (STE20/SPS1-related proline-alanine-rich protein kinase (STK39, Homo sapiens, UniProt Q9UEW8); cell-free assay, competition with immobilised ligand).
For Myosin-IIIa (MYO3A, Homo sapiens, UniProt Q8NEV4); binding, competition with immobilised ligand: remaining binding read 97%.
The remaining binding was 100% (Dual specificity protein kinase CLK2 (CLK2, Homo sapiens, UniProt P49760); cell-free assay, competition with immobilised ligand).
It gave 100% for remaining binding (Receptor-type tyrosine-protein kinase FLT3 (FLT3, Homo sapiens, UniProt P36888, ITD); cell-free assay, competition with immobilised ligand).
Wee1-like protein kinase 2 (WEE2, Homo sapiens, UniProt P0C1S8); cell-free assay, competition with immobilised ligand — remaining binding: 100%.
For Death-associated protein kinase 3 (DAPK3, Homo sapiens, UniProt O43293); cell-free assay, competition with immobilised ligand: remaining binding read 92%.
Serine/threonine-protein kinase Sgk2 (SGK2, Homo sapiens, UniProt Q9HBY8); cell-free assay, competition with immobilised ligand — remaining binding: 65%.
Leukocyte tyrosine kinase receptor (LTK, Homo sapiens, UniProt P29376); cell-free assay, competition with immobilised ligand — remaining binding: 100%.
The remaining binding was 100% (Serine/threonine-protein kinase SIK1 (SIK1, Homo sapiens, UniProt P57059); competition binding).
Tyrosine-protein kinase Lyn (LYN, Homo sapiens, UniProt P07948); cell-free assay, competition with immobilised ligand — remaining binding: 78%.

Block 2
SMILES: C=CCc1ccc(O)c(-c2ccc(O)c(CC=C)c2)c1
Observed: chloride current
Method: whole-cell voltage clamp
Added: 4 µM Ca2+
ANO1 del476-501/F628A: Anoctamin-1 (ANO1, Homo sapiens, UniProt Q5XXA6, del476-501/F628A)
UniProt Q5XXA6, sequence (whole entry, unmodified, looked up): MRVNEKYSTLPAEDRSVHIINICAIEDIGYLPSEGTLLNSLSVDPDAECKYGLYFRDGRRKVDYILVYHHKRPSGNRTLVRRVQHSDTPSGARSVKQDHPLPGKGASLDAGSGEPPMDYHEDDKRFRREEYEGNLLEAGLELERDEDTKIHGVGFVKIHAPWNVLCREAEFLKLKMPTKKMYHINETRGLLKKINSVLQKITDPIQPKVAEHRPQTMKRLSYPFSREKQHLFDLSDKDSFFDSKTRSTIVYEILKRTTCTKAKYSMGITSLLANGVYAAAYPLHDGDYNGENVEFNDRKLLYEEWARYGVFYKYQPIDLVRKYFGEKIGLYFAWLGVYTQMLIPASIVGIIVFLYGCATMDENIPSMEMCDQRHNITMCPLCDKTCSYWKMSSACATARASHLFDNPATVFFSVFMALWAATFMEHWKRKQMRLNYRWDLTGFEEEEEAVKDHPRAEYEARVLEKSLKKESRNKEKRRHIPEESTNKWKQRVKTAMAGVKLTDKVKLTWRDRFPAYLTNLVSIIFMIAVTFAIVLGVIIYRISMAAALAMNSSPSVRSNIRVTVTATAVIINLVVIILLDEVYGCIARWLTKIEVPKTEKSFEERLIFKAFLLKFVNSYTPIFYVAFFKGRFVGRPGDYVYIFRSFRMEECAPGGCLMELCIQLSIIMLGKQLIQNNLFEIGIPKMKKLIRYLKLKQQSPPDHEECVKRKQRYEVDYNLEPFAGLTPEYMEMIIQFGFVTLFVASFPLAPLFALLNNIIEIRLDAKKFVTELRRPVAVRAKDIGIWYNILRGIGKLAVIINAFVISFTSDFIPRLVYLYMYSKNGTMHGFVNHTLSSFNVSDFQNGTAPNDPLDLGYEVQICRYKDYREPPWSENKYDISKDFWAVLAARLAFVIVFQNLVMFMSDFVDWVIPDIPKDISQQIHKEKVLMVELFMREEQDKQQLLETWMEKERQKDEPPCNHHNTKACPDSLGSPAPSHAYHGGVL
ANO1 del476-501: Anoctamin-1 (ANO1, Homo sapiens, UniProt Q5XXA6, del476-501)
ANO1 del476-501/F628A; 10 µM, concentration-response at 40 mV — normalized current: 0.305.
It gave -0.114 for normalized current (ANO1 del476-501; 10 µM, wild type, concentration-response at -40 mV).
It gave 0.918 for normalized current (ANO1 del476-501/F628A; 1 µM, concentration-response at 100 mV).
For ANO1 del476-501; 10 µM, wild type, concentration-response at 80 mV: normalized current read 0.227.

Block 3
Structure (SMILES): CC(C)(C(=O)O)[C@H](NC(=O)Cc1cccc(I)c1)c1ccc2oc(=O)[nH]c2c1
Method: Incucyte 3D growth
Tested at: 30 µM
Reading: higher = more growth
For MEL-JUSO; 78.52 h: spheroid area read 1.52e+07 a.u. and 1.19e+07 a.u. and 1.43e+07 a.u. and 1.35e+07 a.u. and 1.21e+07 a.u. and 1.3e+07 a.u.
It gave 1.62e+07 a.u. and 1.86e+07 a.u. and 1.78e+07 a.u. and 2.72e+07 a.u. and 1.51e+07 a.u. and 2.21e+07 a.u. for spheroid area (MEL-JUSO; 228.52 h).
For NCI-H358; 192 h: spheroid area read 6.38e+06 a.u. and 7.15e+06 a.u. and 8.3e+06 a.u. and 7.74e+06 a.u.
The spheroid area was 3.05e+07 a.u. and 2.63e+07 a.u. and 4.79e+07 a.u. and 3.43e+07 a.u. and 3.07e+07 a.u. and 2.62e+07 a.u. (MEL-JUSO; 324.52 h).
The spheroid area was 1.57e+07 a.u. and 1.99e+07 a.u. and 1.98e+07 a.u. and 1.96e+07 a.u. and 2.11e+07 a.u. and 1.88e+07 a.u. (KP-4; 132 h).

Block 4
Target: Beta-1 adrenergic receptor (ADRB1, Homo sapiens, UniProt P08588)
UniProt P08588, sequence (whole entry, looked up): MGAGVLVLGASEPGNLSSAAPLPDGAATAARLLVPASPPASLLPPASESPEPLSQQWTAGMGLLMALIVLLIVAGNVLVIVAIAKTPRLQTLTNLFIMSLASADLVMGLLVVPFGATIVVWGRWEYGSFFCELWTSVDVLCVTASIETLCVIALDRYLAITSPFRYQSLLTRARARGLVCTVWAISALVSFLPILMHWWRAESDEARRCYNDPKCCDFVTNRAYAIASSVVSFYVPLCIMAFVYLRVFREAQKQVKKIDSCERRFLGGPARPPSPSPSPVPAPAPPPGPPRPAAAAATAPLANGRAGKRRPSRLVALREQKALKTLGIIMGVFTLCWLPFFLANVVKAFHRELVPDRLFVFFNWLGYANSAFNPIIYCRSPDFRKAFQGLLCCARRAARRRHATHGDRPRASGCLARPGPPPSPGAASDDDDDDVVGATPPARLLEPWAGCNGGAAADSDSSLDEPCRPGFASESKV
Action: antagonist
With `O=C(Nc1cc(F)ccc1Cl)c1cc2n(n1)CC(c1ccc(Br)cc1)OC2` (centres unmarked) the IC50 was no less than 100 µM.
`Cn1nnnc1SCCCNCc1ccccc1OCc1ccccc1Cl` gave an IC50 of no less than 100 µM.
`COc1ccc(OCC(O)CN2CCC(O)CC2)c(CNCC2(O)CCCCC2)c1` (centres unmarked) has an IC50 of no less than 100 µM.
`O=C(O)Cc1ccc(OCCNC[C@H](O)c2ccccc2)cc1` gave an IC50 of no less than 100 µM.

Block 5
SMILES: O=C(Nc1cnn(-c2csc(C(=O)NC3COC3)c2)c1)Nc1c(F)cccc1Cl
Observed: enzyme activity
Tested at: 5 µM
Serine/threonine-protein kinase PAK 2 (PAK2, Homo sapiens, UniProt Q13177); baseline: untreated control — remaining activity: 92.2%.
It gave 92.9% for remaining activity (Serine/threonine-protein kinase WNK1 (WNK1, Homo sapiens, UniProt Q9H4A3); baseline: untreated control).
It gave 110% for remaining activity (Cyclin-dependent kinase 14 (CDK14, Homo sapiens, UniProt O94921); inhibitor).

Block 6
Compound: CC1=C(/C=C/C(C)=C/C=C/C(C)=C/C(=O)O)C(C)(C)CCC1
Cell line: HuT78
Tested at: concentration not given
Setting: unit not given
Baseline: vehicle
refers to: IFNG — mRNA level: 6.66 and 6.53 and 6.65.
For refers to: IL2RG: mRNA level read 1.4 and 1.67 and 1.64.
The mRNA level was 2.56 and 3.08 and 1.77 (refers to: IL12RB1).

Block 7
Species: human
Medium: microsomes or S9
Tested at: 2 µM
Time: 0.5 h
`CC(C)N(C(=O)COC(=O)c1ccc(C(C)(C)C)cc1)C(C)C` gave a remaining compound of less than 1%.
With `Cc1ccc(Cl)cc1N1CCN(C(=O)C2CCCN(S(=O)(=O)c3ccccc3)C2)CC1` (centres unmarked) the remaining compound was 29.9%.
`COc1ccc(/C=N/n2cnnc2)cc1COc1cc(C)c(Cl)cc1C(C)C` gave a remaining compound of greater than 100%.
`c1cc2c(cc1OCc1cn(CC3CCCNC3)nn1)CCC2` (centres unmarked) gave a remaining compound of 96.9%.

Other studies, line by line
With `CCCN1C(=O)[C@H](CC(C)C)NC(=O)[C@@H](N(C)C(=O)[C@H](CC2CCC2)NC(=O)[C@@H]2C[C@@H](F)CN2C(=O)[C@@](C)(O)C(F)(F)F)CCCCNC(=O)C2(CC2)NC(=O)[C@@H]1Cc1cc(Cl)ccc1Cl` the tumour volume was 347 mm3 and 403 mm3 and 308 mm3 and 558 mm3 and 481 mm3 and 372 mm3 and 478 mm3 and 318 mm3 (mouse NCI-H1048 xenograft; iv, 100 mg/kg once daily, day 11).
The pyridoxate level of `CC(=O)N[C@@H](Cc1c[nH]c2ccccc12)C(=O)N[C@@H](CCC(=O)C=[N+]=[N-])C(=O)OC(C)C` is reported as 110000 a.u. and 47400 a.u. and 159000 a.u. and 65000 a.u. and 107000 a.u. and 79900 a.u. (UPLC-MS/MS; EL4 tumor, C57BL/6 CES1-/- mice, tumor; subcutaneous, 0.3 mg/kg DON equivalent daily, 5 days; higher = more metabolite).

Repeated from above (block 1):
It gave 87% for remaining binding (Aurora kinase A (AURKA, Homo sapiens, UniProt O14965); cell-free assay, competition with immobilised ligand).
The remaining binding was 93% (Cyclin-dependent kinase 2 (CDK2, Homo sapiens, UniProt P24941); cell-free assay, competition with immobilised ligand).
It gave 100% for remaining binding (Cyclin-G-associated kinase (GAK, Homo sapiens, UniProt O14976); cell-free assay, competition with immobilised ligand).
